Measurements collected from several papers.
Every numbered part comes from another study and shows a few of its results, in no order.

Set 1
Target: Ras GTPase-activating protein-binding protein 1, full length (G3BP1, Homo sapiens, UniProt Q13283)
Sequence of UniProt Q13283 (whole entry, looked up): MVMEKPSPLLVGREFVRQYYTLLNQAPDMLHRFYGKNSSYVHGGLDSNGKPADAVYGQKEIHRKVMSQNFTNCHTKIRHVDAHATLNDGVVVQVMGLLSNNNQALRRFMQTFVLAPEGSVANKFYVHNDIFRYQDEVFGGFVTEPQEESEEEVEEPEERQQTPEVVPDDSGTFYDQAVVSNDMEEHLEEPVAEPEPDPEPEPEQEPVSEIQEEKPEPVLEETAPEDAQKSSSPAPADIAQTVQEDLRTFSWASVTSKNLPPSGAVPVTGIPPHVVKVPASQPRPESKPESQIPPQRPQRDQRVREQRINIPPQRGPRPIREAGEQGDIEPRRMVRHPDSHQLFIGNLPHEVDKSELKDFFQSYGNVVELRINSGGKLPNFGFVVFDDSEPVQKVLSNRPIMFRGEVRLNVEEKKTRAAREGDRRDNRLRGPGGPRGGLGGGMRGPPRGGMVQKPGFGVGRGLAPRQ
Technique: RNA Bind-n-Seq
Molecule type: RNA
Medium: in vitro
Tested at: 200 nM
Setting: whole 134-nt RNA, ends assumed
Added: 150 mM LiCl
Reference: input library
Reading: higher = stronger binding
Each molecule: 7-deaza-guanosine replaces G
Shared flanks, not repeated: GGGAGUUCUACAGUCCGACGAUC … UGGAAUUCUCGGGUGUCAAGG
Sequence | log2 enrichment
GCAGGAAGUAAAAACAAAUGGAAAUGCUUCGGAUGGUGGCAGGGGUGGGGGUUGCUAAGGAAAGGGUGGGAUGGGAGUGGGUAAAGAGUU | -0.23
UCCUGUGCUACACAUCGUAUGUACCGAAUCGGGGAAAGGGGAAAGGGGUUUUUUUGGGGAAAGUAUUAUGUUACGCCGUUCGGAUCUGCA | 1.13
ACCAUGCAGGUGGGCAUCUUUGGGAAGUGGCGCAAGGGGGGGAUAGGGAGGGGGGUAACACUUUGGGAACAGGUGGUCCCAGGUCGUUUC | 0.416
CAAGUCCUGUGCUACACAUCGUAUGUACCGAAUCGGGCCCGGGGCCCGGGCCCGGGAAAGUAUUAUGUUACGCCGUUCGGAUCUGCACUU | -1.78
CUCAAGUCCUGUGCUACACAUCGUAUGUACCGAAUCGGGGAAGGGAAGGAAGGAAAGUAUUAUGUUACGCCGUUCGGAUCUGCACUUCCA | -0.816
GCAGGAAGUAAAAACAAAUGGAAAGGCUUCGGAUAGUGGCAGGGGUGGGGGUUGCUAAGGAAAGGGUGGGAUGGGAGUGGGUAAAGAGUU | -0.295
CAAGUCCUGUGCUACACAUCGUAUGUACCGAAUCGGUUUUGGGUUUUGGUUUUGGGAAAGUAUUAUGUUACGCCGUUCGGAUCUGCACUU | -1.06
UCCUGUGCUACACAUCGUAUGUACCGAAUCGGGUUUUUUUGGUUUUUUUGGUUUUUUUGGAAAGUAUUAUGUUACGCCGUUCGGAUCUGC | 0.425
UCAAGUCCUGUGCUACACAUCGUAUGUACCGAAUCGGGUUUUUGGGUGGGAGGGAAAGUAUUAUGUUACGCCGUUCGGAUCUGCACUUCC | -0.64
UAACUUUAGAGGAGGAUCUGAUGGAUAUGGCACUGGACGUGGAUUUGGGGAUGGCUAUAAUGGGUAUGGAGGAGGACCUGGAGGUGGCAA | -0.236
UCCUGUGCUACACAUCGUAUGUACCGAAUCGGGGAAAAAGGGAAAAAGGGAAAAAGGGGAAAGUAUUAUGUUACGCCGUUCGGAUCUGCA | -0.21

Set 2
Target: Histone acetyltransferase KAT6A, winged helix 2, GST fusion (KAT6A, Homo sapiens, UniProt Q92794, residues 85-181)
Technique: protein binding microarray
Molecule type: double-stranded DNA, one strand shown
Medium: in vitro
Tested at: not given
Setting: 8-mer, flanks averaged, mean of 2 arrays, mostly near background
Reference: not given
Reading: higher = stronger binding
Residues (chain): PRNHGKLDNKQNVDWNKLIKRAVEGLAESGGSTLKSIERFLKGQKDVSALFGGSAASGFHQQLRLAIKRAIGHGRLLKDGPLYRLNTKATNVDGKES
Sequence | E-score
CCACGCAG | 0.0462
ATTCATCA | -0.0224
CCACGTTA | -0.091
CACGTGAG | -0.183
CTCGCCAA | 0.071
ACGAGCGT | -0.0893
GAGGTCGA | 0.152
GTTACTTA | -0.0025
ATCGAAGC | 0.0852
AACCTTTA | -0.211
CGTAACAA | 0.0039
CTGAAGAC | -0.119
CGTTCAAG | -0.0276
ACAATGGC | -0.116
AGAGTTCC | -0.134
CTGATGCA | 0.101
ATACCTGG | -0.312
GGACCTAA | 0.00583
GACCGTCA | -0.0757
CAGATGCA | -0.186
CACGTCCG | -0.167
CTATAATC | -0.114

Set 3
Target: Interferon regulatory factor 5, full length, phosphomimetic (IRF5, Homo sapiens, UniProt Q13568-2, residues 1-514, S451D/S453D/S456D/S462D)
Technique: protein-binding microarray
Molecule type: double-stranded DNA, one strand shown
Medium: in vitro
Tested at: 940 nM top
Setting: 60-bp whole probe
Added: salmon DNA 0.4 mg/ml
Reference: random background probes
Reading: higher = stronger binding
Shared flanks, not repeated: GCCTAGCAC … GTCTTGATTCGCTTGACGCTGCTG
Sequence | fitted relative affinity [z-score]
GACGTTTTCGGTTTCGGGACGTGCTAG | 6.62
GAGGGTTTCGGTTCCGGGACGTGCTAG | 10.8
TTAAATATCAGTTTCGATTAGTGCTAG | 8.73
GAAGGACTGCTACTGCTGACGTGCTAG | -0.836
GACGATATCAGACTGGAGTCGTGCTAG | -0.677
TTTGGTTTCGGTATCGGTTAGTGCTAG | 18.1
TCATCTCTGAAGACTCTCACTGTGCTA | 1.19
TCATTTTTTTCTTTAAAACTGTGCTAG | 0.52
AGATCCATGCTCTGTCGCAGGGTGCTA | -0.477
TCTACTTCTGTTTTTGCTTTGTGCTAG | 1.07
TCACATTTTCTCTTATTACTGTGCTAG | 2.35
TTCGGACTGGGGTATCGGTTAGTGCTA | 2.9
CCAATTCTCTTTTCACTTTCGTGCTAG | 2.9
TCATATTTTTTTGTAATACTGTGCTAG | 1.02
GACGGTTTCCTTATACTGACGTGCTAG | 1.59
AACGGACTGGGGTTTCGGGACGTGCTA | 1.55
TAACCTTGAACTTTGGCCTCGTGCTAG | -0.211
GGCAATTTGAGTCACTGTGTGTGCTAG | -0.506
TTAGGTATCCTTATCCGTTAGTGCTAG | 0.34
TCACTTACCTCACTCGTACTGTGCTAG | 0.883
TTAGGACTGGGGTTGCGGTTAGTGCTA | 0.0716

Set 4
Target: RING finger protein unkempt homolog, zinc fingers 1-6, GST-SBP tag (UNK, Homo sapiens, UniProt Q9C0B0, residues 30-357)
Technique: RNA Bind-n-Seq
Molecule type: RNA
Medium: in vitro
Tested at: not given
Setting: RNA with constant flanks, ends assumed
Reference: input RNA pool
Reading: higher = stronger binding
Shared flanks, not repeated: GGGAGUUCUACAGUCCGACGAUC … CAACAGAGGAUUGAGCAUCA
Construct (chain): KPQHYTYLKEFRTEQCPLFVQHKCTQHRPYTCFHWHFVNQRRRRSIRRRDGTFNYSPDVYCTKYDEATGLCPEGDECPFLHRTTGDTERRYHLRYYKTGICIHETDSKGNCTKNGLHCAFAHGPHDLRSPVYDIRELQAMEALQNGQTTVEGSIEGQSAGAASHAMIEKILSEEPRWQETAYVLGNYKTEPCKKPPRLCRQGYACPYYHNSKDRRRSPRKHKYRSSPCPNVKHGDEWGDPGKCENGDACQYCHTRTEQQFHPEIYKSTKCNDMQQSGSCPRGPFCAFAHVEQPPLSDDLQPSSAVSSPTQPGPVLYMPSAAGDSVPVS
Sequence | bound/input enrichment
CAGGGCGUGAUCAAGUACAUGGGGCCGGCAGGGAGUAAGACCCUGCAGAGUGUUGUGCUCCGCAAGAUGAACUUUGAGUCUUUCGUGAAAGAUCUUCUUCUGGUUCGCCAGUAUCGAGUU | 0.0943 ratio
UUAGAUUCUGGGAAAUUCCGAGCCUUAGGAUGCAUCUUGUCUGAGUUGAAACAGAAGGGUGACCGAGUUGUAUUAUUCAGCCAGUUUACCAUGAUGCUGGAUAUACUAGAGGUUCUCUUA | 0.235 ratio
GCCAGUGCAAAGUAGCCAGAAGGCUGCCACGCCAGAGCGGCACAGAGUUCCCAAGUGUUCUCCGUUUUCGUGUCCGAGCGUCUUGGGCCGCUCUCUCCGGAGAACUGCGACCAGGAUGUG | 0.0581 ratio
AUCUCCUUUUAUGCUCACCUGACAUUAAUUAUCUAUCCUUGAUGAUGUGUUUAAACUGAGCCGCAGAAAACAGAGGCCACACUUUCUGGGAAAUUUUAAAGGAAGAAACCAUUUUUAAUG | 0.17 ratio
AAUAAUCUUCAAAAGUAUAUAGAGAUAUAUGUACAGAAGGUGAAUCCAAGUCGACUUCCUGCCGUUAUUGGAGGAUUACUUGAUGUUGACUGUUCUGAAGAUGUCAUAAAAAACUUGAUU | 0.116 ratio
UUUCUCUUCCACAUGAAAGUAGUAGUUCAGAUGCAAGCUAAGCUGUUUAAUAAGAUUGUUUUCCGUUUAUGUAAAUACUUGUAAAUUGGUCAGUACCUGUAUUGUACAUUUAAAUAUAAA | 0.751 ratio
GAGUGCUUAAGCUGCCAACAGUUAGAAGAUGCUAUUUAUUUGUGUCUGUAAGUUUGUACACCGUAAUGCCAGCCUUGUUGCUGAAUUUUUUAUUUGGGGGGAGAUGACUUUGAAUUUUGU | 1.41 ratio
GUUGGAUUUCAUUUCCCCAGGUCUUCAGUGUUGAUGUAAAUGUGUUUUGUAGUGUUGCUCCGCACUUUGCGCAUUGUGUAAGUUGGGUAACAAAAAUGGCAAAAGAAAUGCAGAUUUCCC | 0.255 ratio
GAAAAACUUUUUGCUGAAGACACAGAAGCAAAGAACCCAUUUUCUACUCAGGACACAGAUUCCGACUUGGAGAUGUUAGCUCCCUAUAUCCCAAUGGAUGAUGACUUCCAGUUACGUUCC | 0.255 ratio
CGAUGUCCAGUCACUGUGUGUGGAGAUGUACAUGGGCAAUUUCAUGAUCUCAUGGAACUCUUCCGAAUUGGUGGUAAAUCACCAGAUACAAAUUACCUGUUUAUGGGAGACUAUGUGGAC | 0.148 ratio
UGUGUUAUUCGUUGUUUAGUGAAGAAGAGGGCUCUUAUUGCAGGAGGUGGUGCUCCAGAAACCGAGUUGGCCCUACGAUUAACUGAAUAUUCACGAACACUGAGUGGUAUGGAAUCCUAC | 0.0873 ratio

Set 5
Target: Phosphate system positive regulatory protein PHO4, full length, GST-tagged (PHO4, Saccharomyces cerevisiae, UniProt P07270, residues 1-312)
Technique: competition protein-binding microarray
Molecule type: double-stranded DNA, one strand shown
Medium: in vitro
Tested at: 2 µM
Setting: whole 60-bp probe, lowest competitor level
Added: Cbf1 competitor, 0.05 µM
Reading: higher = stronger binding
Shared flanks, not repeated: … GTCTTGATTCGCTTGACGCTGCTG
Target sequence (chain): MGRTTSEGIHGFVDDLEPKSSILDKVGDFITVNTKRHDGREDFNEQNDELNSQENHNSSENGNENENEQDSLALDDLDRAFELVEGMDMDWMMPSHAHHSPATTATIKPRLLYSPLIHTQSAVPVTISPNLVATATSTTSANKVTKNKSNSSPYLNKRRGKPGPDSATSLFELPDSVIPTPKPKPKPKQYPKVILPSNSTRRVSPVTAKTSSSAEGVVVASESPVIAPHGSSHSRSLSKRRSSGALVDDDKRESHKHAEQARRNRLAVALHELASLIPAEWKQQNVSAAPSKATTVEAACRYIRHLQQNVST
Sequence | fluorescence intensity
TCGGAGTACAATCCAGTCGTGCCAGTCGAATGGTAG | 7290 a.u.
AAATTACTAAGTTGCCTAGTGGGTGACGCCGTATGA | 4320 a.u.
CGCTCTGTTCCTTCTCCCGTGCTGTCGCAAGCGAAC | 5640 a.u.
CTTTCCCGATCTTGTCTCGTGGGTGTAGCACATTTG | 9290 a.u.
CTTTCCCGATCTTTTCACGTGATTTTAGCACATTTG | 11700 a.u.
ATTTTTACTTTAGTGCGCGTGGGTAGCCGAGCCTCG | 11700 a.u.
CTAACGAAGGTTTGTCACCTGACTTACAAGCCAAGT | 3560 a.u.
ATAGACGTACTGTTACACGTGATGGCGAGGATAGCG | 13800 a.u.
CTAACGAAGGTTTGTCACATAACTTACAAGCCAAGT | 3580 a.u.
TGCGCAACAACTTGTCCGGTGGGTGTATGTCTAGAA | 3920 a.u.
CGGGGTTAAGTTTGGCTAGTGGGTGGCTTGCAGCAG | 4820 a.u.
TAACAGCCAAGTACCCACGGGTTTCTCTAGCCTCAT | 10400 a.u.
GTCTTGTCTCATTGCAACGTGGGTGTCCCCACTTCA | 12100 a.u.
GTCTTGTCTCATTTTCACGTGTGGTTCCCCACTTCA | 11900 a.u.
AACCAGTCTTTCATCACCGTGATGGTAAATTATATA | 6000 a.u.
CTATCCACCAATATGCTCGTGGGTAACATCTAGAGA | 10900 a.u.
TACGACCAGATGAATCACATGTGTGGATGTTAACAA | 9910 a.u.
GTCTTGTCTCATTGGACAGTGGGTGTCCCCACTTCA | 4320 a.u.
CATACCCAACCTTGCTGTGTGGGTGAAGATATTTGT | 5500 a.u.
